Measurements of several laboratories.
Each line is one published result; not all experiments were run side by side. “And” joins repeats or separate records; there may be more than shown.
Cell line: COLO 205

SMILES	assay	system	setting	how to read	endpoint	value
Cn1cncc1C1=CN(c2ncnc3[nH]cnc23)CCS1	–	–	colon cancer	–	GI50	16200 nM
CCn1cc(-c2cc(Cn3ccoc3=N)cc3c2CCN([C@@H](C)c2cc(OC)ccn2)C3=O)c(C(F)(F)F)n1	cell growth, inhibitor	–	120 h	–	EC50	15.1 nM
O=C(Nc1nnc2n3c(nc(-c4ccc(Cl)cc4)c1-2)SCC3=O)c1ccccc1	SRB	–	10 µM, NCI60 single-dose screen, colon cancer	baseline: untreated	cell growth	127%
C#C[C@@]1(O)[C@@H](CO)O[C@@H](n2cc(F)c3c(N)ncnc32)[C@@H]1O	SRB	–	NCI-60 screen	–	TGI	1300 nM
CC(=O)Nc1cccc(-n2c(=O)n(C3CC3)c(=O)c3c(Nc4ccc(I)cc4F)n(C)c(=O)c(C)c32)c1	cell viability, resazurin	–	50.00 nM, 72 h	baseline: DMSO	fractional effect	0.913 and 0.94
O=C1NC(=NCc2cccs2)S/C1=C\c1ccc2ncccc2c1	MTS	colon cancer	–	–	IC50	> 10000 nM
C#C[C@@]1(O)[C@@H](CO)O[C@@H](n2cc(Cl)c3c(N)ncnc32)[C@@H]1O	SRB	–	NCI-60 screen	–	TGI	521 nM and 276 nM
O=C(Nc1nnc2[nH]c(=S)[nH]c(-c3ccc(Cl)cc3)c1-2)c1ccccc1	SRB	–	10 µM, NCI60 single-dose screen, colon cancer	baseline: untreated	cell growth	122%
CCN(CC)c1ccc(C=NNC(=O)CSc2nc3ccccc3c(=O)n2Cc2ccc(S(N)(=O)=O)cc2)c(O)c1	NCI five-dose screen	–	–	–	TGI	> 100000 nM
CCOC(=O)CSc1nc(-c2ccc(Cl)cc2)c2c(NC(=O)c3ccccc3)nnc-2[nH]1	SRB	–	10 µM, NCI60 single-dose screen, colon cancer	baseline: untreated	cell growth	99.2%
Cn1cc(-c2ccc(-c3cncc(Cl)c3N3CCC4(CCNC4=O)CC3)cc2)cn1	gene expression, microarray, refers to: LMNA mRNA	–	concentration not given, 6 h	baseline: untreated cells	log2 fold change	2.28
S=C([S][Au-][P+](CCCCCC[P+]([Au-][S]C(=S)n1cccn1)(c1ccccc1)c1ccccc1)(c1ccccc1)c1ccccc1)n1cccn1	cell growth	–	–	–	GI50	308 nM

Excerpt of the above:
SMILES	assay	system	setting	how to read	endpoint	value
S=C([S][Au-][P+](CCCCCC[P+]([Au-][S]C(=S)n1cccn1)(c1ccccc1)c1ccccc1)(c1ccccc1)c1ccccc1)n1cccn1	cell growth	–	–	–	GI50	308 nM
